Measurements pooled from the literature.
Protocols differ between the studies behind these lines. Values joined by “and” are separate records of one study, mostly repeats; a detail may differ. ± marks the error that the study gave.

C1=[N+]2CCC[N+]3=Cc4ccc5[n]4[Au-]23[n]2c1ccc2-c1nc2ccccc2nc1-5.F[P-](F)(F)(F)(F)F
melting temperature (human ACTN3 291-bp linear dsDNA; high-resolution melt; 10.2 µM): 85.8 °C

C(=N\Nc1nc(Nc2ccccc2)nc(N2CCOCC2)n1)/c1c[nH]c2ccccc12
translation activity (Trypanosoma cruzi; reporter mRNA translation, inhibitor, measured: Renilla luciferase mRNA; cell-free extract; concentration not given, test 1; baseline: positive over negative control): 101% and 93.8%

CC[C@H]1OC(=O)[C@H](C)[C@@H](OC(=O)Cc2ccc(N(C)C)cc2)[C@H](C)[C@@H](O[C@@H]2O[C@H](C)C[C@H](N(C)C)[C@H]2O)[C@](C)(OC)C[C@@H](C)C(=O)[C@H](C)[C@@H](O)[C@]1(C)O
IC50 (Escherichia coli ribosome; in vitro transcription-translation, inhibitor): 860 nM

CNS(=O)(=O)Nc1nccc(Cc2c(C)c3ccc(Oc4ncccc4F)cc3oc2=O)c1F
IC50 (DB; cell viability, CellTiter-Glo; 7 days): > 1000 nM

CC(C)Cc1ccc(CN2CCCC(NC(=O)c3nn(C)c(=O)c4ccccc34)C2)cc1 (stereo not drawn)
translation activity (Trypanosoma cruzi; reporter mRNA translation, inhibitor, measured: Renilla luciferase mRNA; cell-free extract; concentration not given, test 1; baseline: positive over negative control): 103% and 113%

c1ccc(-c2n[nH]cc2-c2ccnc3ccccc23)nc1
log2 fold change (FPK1 (Candida albicans); kinase binding, MIB/MS competition; Candida albicans lysate; 1 µM; baseline: DMSO): -0.03

Fc1ccc(Nc2nc(NC3CCCCC3)c3cc(Br)ccc3n2)cc1F
maximal inhibition (β2AR/β1AR TM2 chimera; β-arrestin2 recruitment, antagonist, BRET; baseline: isoprenaline maximal response): -10%

CC(C)=CCC/C(C)=C/CC/C(C)=C/Cc1c(O)cc(CO)c(C=O)c1O
kcat (StaI′ (Stachybotrys chartarum); substrate; 30 min, pH 7.5, 40 °C): 0.003 s⁻¹

CC(=O)NCCCN(C)CCCNc1cccc2c1C(=O)c1cccc(NCCCN(C)CCCNC(C)=O)c1C2=O
ΔTm (telomeric G-quadruplex DNA; DNA thermal stabilisation, CD melting; concentration not given, pH 7.4, together with: 100 mM NaCl): < 0.5 °C

Nc1ncc(-c2cc(-c3cnn(CC(F)(F)F)c3)ncc2F)nc1C(=O)NC1CNCC(F)C1 (stereo not drawn)
remaining binding (TIE1; KINOMEscan; 1 µM; baseline: DMSO control): 40%

C=CC(=O)N1[C@@H](c2ccc3c(c2)OCO3)c2[nH]c3ccccc3c2C[C@H]1C(=O)N1CCN(C)CC1
relative co-enrichment (human cyclin E1 N112C-3xFLAG:CDK2; co-IP with TMT proteomics, measured: HNRNPU; concentration not given, Q00839; baseline: wild type DMSO): 138%

CC[C@H]1OC(=O)[C@H](C)[C@@H](OC(=O)Cc2ccc3c(c2)OCO3)[C@H](C)[C@@H](O[C@@H]2O[C@H](C)C[C@H](N(C)C)[C@H]2O)[C@](C)(OC)C[C@@H](C)C(=O)[C@H](C)[C@@H](O)[C@]1(C)O
IC50 (Escherichia coli ribosome; in vitro transcription-translation, inhibitor): 220 nM

COC1CN([C@H]2CC[C@H]([C@@]3(C)Oc4c(Cl)cc(C(=O)NCc5c(SC)cc(C)[nH]c5=O)c(C)c4O3)CC2)C1
log2 fold change (RNA-seq, measured: ELOVL6; human, whole blood; dose not given, 24 h; baseline: pretreatment baseline): 1.2

Fc1ccc(Nc2nc(NC3CCCCC3)c3ccccc3n2)cc1F
pIC50 (β2AR/β1AR TM2 chimera; β-arrestin2 recruitment, antagonist, BRET; together with: isoprenaline 1 µM): 5.8

Cc1ncsc1-c1ccc(C(C)NC(=O)C2CC(O)CN2C(=O)C(NC(=O)CCCCCCCCCCN2CCCC(Nc3ncc(Cl)c(Nc4ccccc4S(=O)(=O)C(C)C)n3)C2)C(C)(C)C)cc1 (stereo not drawn)
log2 fold change (22Rv1; RNA-seq, measured: ZSCAN20 mRNA; concentration not given; baseline: DMSO): -1.88

C=C(NC(=O)c1csc(-c2cccnc2)n1)C(=O)NC(=C)C(=O)OC
protein forming monoadduct (human PRX1 C71S/C83S/C173S; MALDI-TOF; 200 µM, pH 8): > 95%

NCCCn1cc(COc2cc(C(=O)Nc3cc(OCCN)c4ccccc4n3)nc(C(=O)Nc3cc(OCCN)c4ccccc4n3)c2)nn1
ΔTm (c-kit1 G-quadruplex DNA; FRET melting; 1 µM, pH 7.4, together with: 60 mM potassium): 13.5 ± 0.8 K

C=CC(=O)Nc1cccc(Cn2ncc3cnc(Nc4cnn(CCOC)c4)nc32)c1
percent of control (CAMK2D human; binding, KINOMEscan; 100 nM; lower = stronger binding): 100%
